Experimental data pooled from the literature.
Parts stem from different laboratories: compare values within a part only.
Chain of UniProt Q99683 (whole entry, looked up): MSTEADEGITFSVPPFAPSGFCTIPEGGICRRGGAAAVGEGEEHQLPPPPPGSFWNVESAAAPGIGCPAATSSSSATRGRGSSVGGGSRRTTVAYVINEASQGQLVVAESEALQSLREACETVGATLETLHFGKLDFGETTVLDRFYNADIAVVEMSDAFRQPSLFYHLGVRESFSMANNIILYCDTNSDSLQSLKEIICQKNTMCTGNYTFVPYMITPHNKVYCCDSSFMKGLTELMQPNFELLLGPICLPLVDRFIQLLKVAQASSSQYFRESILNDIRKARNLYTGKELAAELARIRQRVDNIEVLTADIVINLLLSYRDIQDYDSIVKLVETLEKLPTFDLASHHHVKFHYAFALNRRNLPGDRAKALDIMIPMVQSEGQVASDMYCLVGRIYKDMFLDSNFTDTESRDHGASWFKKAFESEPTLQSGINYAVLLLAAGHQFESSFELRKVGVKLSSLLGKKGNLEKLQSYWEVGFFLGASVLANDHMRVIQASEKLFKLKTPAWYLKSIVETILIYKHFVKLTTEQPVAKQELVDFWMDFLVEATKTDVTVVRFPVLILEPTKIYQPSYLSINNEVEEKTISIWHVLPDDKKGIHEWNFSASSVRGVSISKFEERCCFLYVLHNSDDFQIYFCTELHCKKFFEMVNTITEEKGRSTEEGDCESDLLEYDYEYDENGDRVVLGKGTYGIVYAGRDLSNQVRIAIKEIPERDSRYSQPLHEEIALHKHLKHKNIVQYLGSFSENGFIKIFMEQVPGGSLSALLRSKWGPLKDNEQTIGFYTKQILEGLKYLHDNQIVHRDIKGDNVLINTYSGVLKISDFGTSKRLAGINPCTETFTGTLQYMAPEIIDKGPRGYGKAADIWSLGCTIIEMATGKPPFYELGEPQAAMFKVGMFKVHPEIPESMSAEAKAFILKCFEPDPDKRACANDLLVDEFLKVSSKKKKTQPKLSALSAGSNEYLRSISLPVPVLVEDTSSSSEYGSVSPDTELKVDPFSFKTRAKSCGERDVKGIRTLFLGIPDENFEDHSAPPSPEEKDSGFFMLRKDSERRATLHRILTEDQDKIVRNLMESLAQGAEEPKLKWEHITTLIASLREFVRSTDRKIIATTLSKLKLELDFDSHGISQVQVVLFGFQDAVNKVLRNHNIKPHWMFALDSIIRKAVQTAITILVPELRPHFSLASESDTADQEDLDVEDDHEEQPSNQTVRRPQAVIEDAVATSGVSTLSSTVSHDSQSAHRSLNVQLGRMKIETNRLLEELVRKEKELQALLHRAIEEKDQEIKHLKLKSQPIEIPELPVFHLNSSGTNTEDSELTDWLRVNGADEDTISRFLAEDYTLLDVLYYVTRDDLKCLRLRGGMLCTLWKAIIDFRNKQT
Chain of UniProt P42336 (whole entry, unmodified, looked up): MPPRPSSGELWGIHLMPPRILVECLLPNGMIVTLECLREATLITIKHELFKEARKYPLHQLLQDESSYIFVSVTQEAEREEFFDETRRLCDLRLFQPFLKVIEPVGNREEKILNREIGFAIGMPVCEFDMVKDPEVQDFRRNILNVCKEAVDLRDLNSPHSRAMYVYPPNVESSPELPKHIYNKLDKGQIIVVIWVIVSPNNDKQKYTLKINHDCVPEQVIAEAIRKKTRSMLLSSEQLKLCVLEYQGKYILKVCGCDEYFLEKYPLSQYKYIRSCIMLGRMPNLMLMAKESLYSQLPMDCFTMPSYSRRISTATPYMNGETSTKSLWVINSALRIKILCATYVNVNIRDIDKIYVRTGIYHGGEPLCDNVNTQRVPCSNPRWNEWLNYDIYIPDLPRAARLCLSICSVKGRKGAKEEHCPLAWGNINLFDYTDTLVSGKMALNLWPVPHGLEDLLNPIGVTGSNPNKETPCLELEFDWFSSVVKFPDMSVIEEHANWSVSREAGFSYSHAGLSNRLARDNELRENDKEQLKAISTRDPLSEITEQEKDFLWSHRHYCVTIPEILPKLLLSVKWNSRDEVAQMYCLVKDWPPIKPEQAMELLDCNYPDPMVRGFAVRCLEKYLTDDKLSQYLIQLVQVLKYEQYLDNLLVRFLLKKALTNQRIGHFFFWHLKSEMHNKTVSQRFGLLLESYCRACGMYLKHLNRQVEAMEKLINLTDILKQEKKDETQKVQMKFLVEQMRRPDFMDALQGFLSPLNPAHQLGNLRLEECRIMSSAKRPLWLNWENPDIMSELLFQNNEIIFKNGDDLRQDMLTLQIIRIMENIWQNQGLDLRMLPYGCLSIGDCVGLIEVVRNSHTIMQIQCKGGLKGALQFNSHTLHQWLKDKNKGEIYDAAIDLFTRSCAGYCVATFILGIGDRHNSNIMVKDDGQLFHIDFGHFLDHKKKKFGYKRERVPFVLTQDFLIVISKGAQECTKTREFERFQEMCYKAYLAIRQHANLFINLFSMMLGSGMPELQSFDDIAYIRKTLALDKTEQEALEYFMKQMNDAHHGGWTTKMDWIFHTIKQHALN

Block 1
SMILES: CCS(=O)(=O)c1cc2cc(C[C@@](O)(CC(C)(C)c3ccc(F)cc3C(N)=O)C(F)(F)F)[nH]c2cn1
Observed: cell-free assay
Method: competition with immobilised ligand
Concentration: 1 µM
YES1 (Homo sapiens, UniProt P07947) — remaining binding: 100%.
For CSNK1D (Homo sapiens, UniProt P48730): remaining binding read 100%.
For Ribosomal protein S6 kinase alpha-4, C-terminal kinase domain (RPS6KA4, Homo sapiens, UniProt O75676): remaining binding read 71%.
For MAP2K3 (Homo sapiens, UniProt P46734): remaining binding read 67%.
The remaining binding was 95% (FGFR2 (Homo sapiens, UniProt P21802)).
The remaining binding was 100% (PAK1 (Homo sapiens, UniProt Q13153)).
EGFR (Homo sapiens, UniProt P00533, del752-759) — remaining binding: 100%.
ACVRL1 (Homo sapiens, UniProt P37023) — remaining binding: 100%.
It gave 77% for remaining binding (STK32A (Homo sapiens, UniProt Q8WU08)).
For CAMKK1 (Homo sapiens, UniProt Q8N5S9): remaining binding read 87%.
For WEE1 (Homo sapiens, UniProt P30291): remaining binding read 100%.
The remaining binding was 74% (PIK3CA (Homo sapiens, UniProt P42336, E542K)).
PRKCD (Homo sapiens, UniProt Q05655) — remaining binding: 99%.
It gave 53% for remaining binding (NEK1 (Homo sapiens, UniProt Q96PY6)).
The remaining binding was 100% (MAP3K5 (Homo sapiens, UniProt Q99683)).
For GRK1 (Homo sapiens, UniProt Q15835): remaining binding read 100%.

Block 2
Compound: Cc1sc(C(=O)NC2COC2)cc1-n1cc(NC(=O)Nc2c(F)cccc2Cl)cn1
Observed: enzyme activity
Concentration: 10 µM
Relative to: untreated control
ROCK1 (Homo sapiens, UniProt Q13464) — remaining activity: 96.4%.
It gave 75.3% for remaining activity (NEK4 (Homo sapiens, UniProt P51957)).
For CSK (Homo sapiens, UniProt P41240): remaining activity read 94.9%.
For Protein kinase C beta type, isoform beta-II (PRKCB, Homo sapiens, UniProt P05771): remaining activity read 96.8%.
For MKNK2 (Homo sapiens, UniProt Q9HBH9): remaining activity read 79.5%.
GRK7 (Homo sapiens, UniProt Q8WTQ7) — remaining activity: 98.3%.
It gave 87.3% for remaining activity (DYRK4 (Homo sapiens, UniProt Q9NR20)).
For MAP3K5 (Homo sapiens, UniProt Q99683): remaining activity read 89.7%.
The remaining activity was 67.8% (ERN2 (Homo sapiens, UniProt Q76MJ5)).

Block 3
Target: DNA polymerase theta, ATPase domain (POLQ, Homo sapiens, UniProt O75417)
Chain of UniProt O75417 (whole entry, unmodified, looked up): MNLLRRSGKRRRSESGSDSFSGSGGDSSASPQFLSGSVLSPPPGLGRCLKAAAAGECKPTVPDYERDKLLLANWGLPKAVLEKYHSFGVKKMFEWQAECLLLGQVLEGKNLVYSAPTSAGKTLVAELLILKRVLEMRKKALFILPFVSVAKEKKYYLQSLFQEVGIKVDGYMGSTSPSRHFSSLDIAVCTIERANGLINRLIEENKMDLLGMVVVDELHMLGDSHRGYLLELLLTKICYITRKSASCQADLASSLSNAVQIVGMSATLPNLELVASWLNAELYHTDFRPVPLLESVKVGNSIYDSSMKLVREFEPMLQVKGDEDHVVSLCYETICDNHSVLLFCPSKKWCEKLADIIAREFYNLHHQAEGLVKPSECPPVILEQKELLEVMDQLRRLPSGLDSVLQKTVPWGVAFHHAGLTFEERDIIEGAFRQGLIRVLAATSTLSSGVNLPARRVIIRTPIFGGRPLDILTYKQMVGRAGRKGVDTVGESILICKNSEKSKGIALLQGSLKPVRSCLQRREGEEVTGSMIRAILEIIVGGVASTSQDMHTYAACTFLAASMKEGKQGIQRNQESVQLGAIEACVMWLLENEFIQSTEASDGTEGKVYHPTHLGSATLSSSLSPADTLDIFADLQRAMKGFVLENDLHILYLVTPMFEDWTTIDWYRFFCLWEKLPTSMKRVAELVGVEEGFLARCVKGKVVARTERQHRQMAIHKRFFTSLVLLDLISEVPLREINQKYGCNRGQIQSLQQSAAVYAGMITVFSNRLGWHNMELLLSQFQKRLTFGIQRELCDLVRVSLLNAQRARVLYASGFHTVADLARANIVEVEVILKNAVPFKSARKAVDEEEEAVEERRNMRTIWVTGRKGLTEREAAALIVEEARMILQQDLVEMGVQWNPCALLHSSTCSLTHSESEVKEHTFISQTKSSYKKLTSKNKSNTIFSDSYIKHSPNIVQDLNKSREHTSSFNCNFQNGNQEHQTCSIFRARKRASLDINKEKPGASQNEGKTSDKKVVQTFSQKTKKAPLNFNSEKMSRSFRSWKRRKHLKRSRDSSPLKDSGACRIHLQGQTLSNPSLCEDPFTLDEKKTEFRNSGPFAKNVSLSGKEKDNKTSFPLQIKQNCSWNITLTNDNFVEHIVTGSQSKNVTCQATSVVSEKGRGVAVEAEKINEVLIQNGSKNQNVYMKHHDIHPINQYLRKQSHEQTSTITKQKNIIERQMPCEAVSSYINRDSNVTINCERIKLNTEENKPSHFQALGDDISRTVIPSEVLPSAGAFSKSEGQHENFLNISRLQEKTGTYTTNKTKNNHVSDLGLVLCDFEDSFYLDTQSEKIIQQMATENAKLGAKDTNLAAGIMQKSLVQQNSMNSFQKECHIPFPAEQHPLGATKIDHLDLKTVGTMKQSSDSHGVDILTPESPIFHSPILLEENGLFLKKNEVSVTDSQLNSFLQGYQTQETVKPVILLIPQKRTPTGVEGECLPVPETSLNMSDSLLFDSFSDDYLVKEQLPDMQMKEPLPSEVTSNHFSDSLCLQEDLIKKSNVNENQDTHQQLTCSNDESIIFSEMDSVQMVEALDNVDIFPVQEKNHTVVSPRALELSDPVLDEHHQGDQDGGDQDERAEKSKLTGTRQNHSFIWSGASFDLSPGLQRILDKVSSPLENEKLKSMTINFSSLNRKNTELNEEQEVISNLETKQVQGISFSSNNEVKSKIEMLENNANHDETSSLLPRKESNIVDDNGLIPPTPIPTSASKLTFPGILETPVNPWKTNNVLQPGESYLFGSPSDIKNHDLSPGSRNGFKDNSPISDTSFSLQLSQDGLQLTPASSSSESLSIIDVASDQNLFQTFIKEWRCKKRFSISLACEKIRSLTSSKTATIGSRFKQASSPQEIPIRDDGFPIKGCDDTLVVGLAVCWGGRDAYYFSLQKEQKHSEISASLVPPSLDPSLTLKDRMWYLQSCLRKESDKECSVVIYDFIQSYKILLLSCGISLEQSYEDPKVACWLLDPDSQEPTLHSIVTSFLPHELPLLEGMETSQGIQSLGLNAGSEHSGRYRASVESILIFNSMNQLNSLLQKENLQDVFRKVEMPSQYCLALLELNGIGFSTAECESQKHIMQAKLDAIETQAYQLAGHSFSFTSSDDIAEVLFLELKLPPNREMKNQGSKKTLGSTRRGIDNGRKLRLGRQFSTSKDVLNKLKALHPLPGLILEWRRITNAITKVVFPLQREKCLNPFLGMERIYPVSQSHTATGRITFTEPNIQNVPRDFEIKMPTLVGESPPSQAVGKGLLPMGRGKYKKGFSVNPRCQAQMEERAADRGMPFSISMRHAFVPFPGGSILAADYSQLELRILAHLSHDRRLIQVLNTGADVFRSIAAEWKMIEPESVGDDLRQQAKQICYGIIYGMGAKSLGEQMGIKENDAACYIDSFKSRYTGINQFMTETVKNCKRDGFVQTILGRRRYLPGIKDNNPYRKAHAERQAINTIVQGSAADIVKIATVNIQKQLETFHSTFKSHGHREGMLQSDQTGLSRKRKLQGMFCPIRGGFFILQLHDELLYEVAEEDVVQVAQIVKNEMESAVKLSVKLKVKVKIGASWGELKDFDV
Observed: enzyme activity
Action: inhibitor
Concentration: 77 µM
Relative to: untreated
CCOc1ccc2nc3cc(N)ccc3c(N)c2c1 has a remaining activity of 68.3%.
CC[N+](C)(CC)CCC[n+]1c(-c2ccccc2)c2cc(N)ccc2c2ccc(N)cc21 gave a remaining activity of 67.2%.
Cc1cccc(-c2[nH]ncc2-c2ccc3ncccc3n2)n1 gave a remaining activity of 96.7%.
The remaining activity of Cn1cnc2cc3c(Nc4cccc(Br)c4)ncnc3cc21 is reported as 114%.
C=C[C@]1(C)C[C@@H](OC(=O)CSC(C)(C)CNC(=O)[C@H](N)C(C)C)[C@]2(C)[C@H](C)CC[C@]3(CCC(=O)[C@H]32)[C@@H](C)[C@@H]1O has a remaining activity of 74.3%.
N[C@@H](CC(=O)O)C(=O)O has a remaining activity of 89.5%.
For CN1C(CCl)Nc2cc(Cl)c(S(N)(=O)=O)cc2S1(=O)=O (stereo not drawn), the remaining activity was 102%.
With N=C(N)N the remaining activity was 99.6%.
With C=C1C(=O)O[C@@H]2/C=C(\C)CC/C=C(\C)CC[C@@H]12 the remaining activity was 127%.
With CC(C)(C)C#Cc1cc(N(C(=O)[C@H]2CC[C@H](C)CC2)[C@H]2CC[C@H](O)CC2)c(C(=O)O)s1 the remaining activity was 92.7%.

Block 4
Cell line: mouse MPNST tumor cells
Method: high-content immunofluorescence imaging
Refers to: nuclear SOX9
Concentration: 10 µM
Time: 12 h
Setting: mean of 2 replicates
Relative to: DMSO control
Direction: higher = more nuclear SOX9
CCc1ccc(C=CC(=O)Nc2ccc(C(C)=O)cc2)o1 — result for “nuclear SOX9 intensity”: 108 % of DMSO.
C[C@H](N)COC(=O)[C@H](CCCCN)NC(=O)Cc1c(-c2ccc3ccccc3c2)[nH]c2c1ccc1ccccc12 — result for “nuclear SOX9 intensity”: 97.4 % of DMSO.
Under “nuclear SOX9 intensity”, CC(C)NCC(O)COc1ccc(COCCOC(C)C)cc1 (stereo not drawn) is recorded as 109 % of DMSO.
Under “nuclear SOX9 intensity”, NS(=O)(=O)c1c(Cl)ccc(NC(=O)Nc2cccc(Cl)c2Cl)c1O is recorded as 91.2 % of DMSO.
Under “nuclear SOX9 intensity”, O=C1NC(=NCc2cccs2)S/C1=C\c1ccc2ncccc2c1 is recorded as 98.2 % of DMSO.
CCCOc1ccc2[nH]c(NC(=O)OC)nc2c1: “nuclear SOX9 intensity” 146 % of DMSO.
O=[N+]([O-])c1cc(Cl)ccc1S(=O)(=O)N1CCN(Cc2ccccc2)CC1: “nuclear SOX9 intensity” 91.3 % of DMSO.
For C#CCN(C)CCCOc1ccc(Cl)cc1Cl, “nuclear SOX9 intensity” read 118 % of DMSO.
For Nc1nccc(-c2c(-c3ccc(F)cc3)ncn2C2CCCCC2)n1, “nuclear SOX9 intensity” read 109 % of DMSO.
CCCCS(=O)(=O)N[C@@H](Cc1ccc(OCCCCC2CCNCC2)cc1)C(=O)O: “nuclear SOX9 intensity” 92.4 % of DMSO.
